Measured values of several laboratories.

Substance | target or system | test | system | setting | scale | measurement | value
C[C@H](CCC(=O)NCCS(=O)(=O)[O-])[C@H]1CC[C@H]2[C@@H]3[C@@H](O)C[C@@H]4C[C@H](O)CC[C@]4(C)[C@H]3CC[C@]12C.[Na+] | Replicase polyprotein 1ab, main protease (rep, Severe acute respiratory syndrome coronavirus 2, UniProt P0DTD1) | reporter gene (Gaussia luciferase), inhibitor | – | 20 µM | – | inhibition | 1.7%
KLLEQWNLV | – | AIM | peptide, CD8+ T cells from PBMC, human donors | HLA-A*02:01 restricted, unit not given | reference: positive over tested donors | frequency of responding donors | 25
CC[C@H](C)[C@H](NC(=O)[C@H](CC(C)C)NC(=O)[C@H](Cc1c[nH]c2ccccc12)NC(=O)[C@H](CCC(N)=O)NC(=O)[C@@H](NC(=O)[C@H](Cc1ccccc1)NC(=O)[C@H](C)NC(=O)[C@H](CCCCNC(=O)COCCOCCNC(=O)COCCOCCNC(=O)CC[C@H](NC(=O)CCCCCCCCCCCCCCCCCCC(=O)O)C(=O)O)NC(=O)[C@H](CCC(N)=O)NC(=O)[C@H](C)NC(=O)[C@@H](NC(=O)[C@H](CCCCN)NC(=O)[C@H](CC(=O)O)NC(=O)[C@H](CC(C)C)NC(=O)C(C)(C)NC(=O)[C@@H](NC(=O)[C@H](CO)NC(=O)[C@H](Cc1ccc(O)cc1)NC(=O)[C@H](CC(=O)O)NC(=O)[C@H](CO)NC(=O)[C@@H](NC(=O)[C@H](Cc1ccccc1)NC(=O)[C@@H](NC(=O)CNC(=O)[C@H](CCC(=O)O)NC(=O)C(C)(C)NC(=O)[C@@H](N)Cc1ccc(O)cc1)[C@@H](C)O)[C@@H](C)O)[C@@H](C)CC)[C@@H](C)CC)C(C)C)C(=O)N[C@@H](C)C(=O)NCC(=O)NCC(=O)N1CCC[C@H]1C(=O)N[C@@H](CO)C(=O)N[C@@H](CO)C(=O)NCC(=O)N[C@@H](C)C(=O)N1CCC[C@H]1C(=O)N1CCC[C@H]1C(=O)N1CCC[C@H]1C(=O)N[C@@H](CO)C(N)=O | – | – | healthy subjects | 1.5 mg, multiple ascending dose | – | injection site reaction | 0%
AEVQIDRL | – | AIM | peptide, CD8+ T cells from PBMC, human donors | dose not given | – | response magnitude per positive donor | 101
Nc1ncnc2c([C@@H]3N[C@H](CO)[C@@H](O)[C@H]3O)c[nH]c12 | Zaire ebolavirus | antibody staining | human macrophages | 6.3 µM | – | antigen-positive cells | 67.3%

Repeated from above:
Substance | target or system | test | system | setting | scale | measurement | value
C[C@H](CCC(=O)NCCS(=O)(=O)[O-])[C@H]1CC[C@H]2[C@@H]3[C@@H](O)C[C@@H]4C[C@H](O)CC[C@]4(C)[C@H]3CC[C@]12C.[Na+] | Replicase polyprotein 1ab, main protease (rep, Severe acute respiratory syndrome coronavirus 2, UniProt P0DTD1) | reporter gene (Gaussia luciferase), inhibitor | – | 20 µM | – | inhibition | 1.7%
